Measurements of several laboratories.
Parts stem from different laboratories: compare values within a part only. Several values in a cell are separate wells, animals, samples, runs or records.
Sequence of UniProt Q13882 (whole entry, looked up): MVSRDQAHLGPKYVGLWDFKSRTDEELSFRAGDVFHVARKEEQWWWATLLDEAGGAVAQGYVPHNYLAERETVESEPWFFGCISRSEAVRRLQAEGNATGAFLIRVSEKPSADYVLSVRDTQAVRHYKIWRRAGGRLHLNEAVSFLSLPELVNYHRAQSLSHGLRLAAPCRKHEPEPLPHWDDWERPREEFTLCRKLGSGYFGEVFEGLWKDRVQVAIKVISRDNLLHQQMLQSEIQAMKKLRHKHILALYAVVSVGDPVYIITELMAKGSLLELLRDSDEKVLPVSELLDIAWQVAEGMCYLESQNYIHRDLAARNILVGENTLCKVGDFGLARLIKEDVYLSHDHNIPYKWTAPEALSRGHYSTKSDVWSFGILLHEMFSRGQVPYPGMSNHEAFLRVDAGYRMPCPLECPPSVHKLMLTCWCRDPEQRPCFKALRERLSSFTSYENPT
Sequence of UniProt Q02156 (whole entry, looked up): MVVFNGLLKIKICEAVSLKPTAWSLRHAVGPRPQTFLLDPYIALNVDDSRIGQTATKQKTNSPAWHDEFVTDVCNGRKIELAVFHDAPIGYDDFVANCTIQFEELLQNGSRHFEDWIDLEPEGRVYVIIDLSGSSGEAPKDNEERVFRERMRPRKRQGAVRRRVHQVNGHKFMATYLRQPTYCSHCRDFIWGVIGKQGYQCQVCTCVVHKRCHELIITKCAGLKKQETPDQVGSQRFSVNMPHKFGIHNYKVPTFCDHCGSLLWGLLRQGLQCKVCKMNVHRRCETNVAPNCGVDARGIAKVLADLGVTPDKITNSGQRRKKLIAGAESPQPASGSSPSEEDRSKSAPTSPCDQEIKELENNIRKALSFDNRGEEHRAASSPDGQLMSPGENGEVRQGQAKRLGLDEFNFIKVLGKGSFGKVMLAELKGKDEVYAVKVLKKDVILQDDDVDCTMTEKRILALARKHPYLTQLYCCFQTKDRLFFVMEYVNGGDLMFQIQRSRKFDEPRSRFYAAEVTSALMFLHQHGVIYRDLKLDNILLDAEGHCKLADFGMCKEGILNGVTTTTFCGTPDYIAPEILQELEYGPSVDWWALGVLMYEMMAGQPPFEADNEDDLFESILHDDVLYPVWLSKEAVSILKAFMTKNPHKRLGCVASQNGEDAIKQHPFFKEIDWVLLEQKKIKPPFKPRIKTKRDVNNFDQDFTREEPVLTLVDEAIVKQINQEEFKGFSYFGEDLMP
Sequence of UniProt Q5BJF2 (whole entry, looked up): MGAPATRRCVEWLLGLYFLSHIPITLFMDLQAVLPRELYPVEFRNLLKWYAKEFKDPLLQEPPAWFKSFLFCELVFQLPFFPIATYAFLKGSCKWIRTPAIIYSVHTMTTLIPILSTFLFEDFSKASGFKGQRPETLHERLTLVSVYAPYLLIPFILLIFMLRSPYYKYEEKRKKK
Sequence of UniProt P45985 (whole entry, looked up): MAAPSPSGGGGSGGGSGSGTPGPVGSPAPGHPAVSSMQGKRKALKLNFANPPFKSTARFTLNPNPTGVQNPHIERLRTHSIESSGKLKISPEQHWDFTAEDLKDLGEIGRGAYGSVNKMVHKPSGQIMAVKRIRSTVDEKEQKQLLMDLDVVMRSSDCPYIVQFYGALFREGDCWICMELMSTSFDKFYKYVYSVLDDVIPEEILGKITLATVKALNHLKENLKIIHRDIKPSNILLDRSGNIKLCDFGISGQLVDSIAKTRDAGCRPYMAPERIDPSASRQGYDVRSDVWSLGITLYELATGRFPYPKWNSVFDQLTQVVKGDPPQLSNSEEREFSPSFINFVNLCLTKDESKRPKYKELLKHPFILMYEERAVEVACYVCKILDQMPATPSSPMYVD
Sequence of UniProt Q8IYT8 (whole entry, looked up): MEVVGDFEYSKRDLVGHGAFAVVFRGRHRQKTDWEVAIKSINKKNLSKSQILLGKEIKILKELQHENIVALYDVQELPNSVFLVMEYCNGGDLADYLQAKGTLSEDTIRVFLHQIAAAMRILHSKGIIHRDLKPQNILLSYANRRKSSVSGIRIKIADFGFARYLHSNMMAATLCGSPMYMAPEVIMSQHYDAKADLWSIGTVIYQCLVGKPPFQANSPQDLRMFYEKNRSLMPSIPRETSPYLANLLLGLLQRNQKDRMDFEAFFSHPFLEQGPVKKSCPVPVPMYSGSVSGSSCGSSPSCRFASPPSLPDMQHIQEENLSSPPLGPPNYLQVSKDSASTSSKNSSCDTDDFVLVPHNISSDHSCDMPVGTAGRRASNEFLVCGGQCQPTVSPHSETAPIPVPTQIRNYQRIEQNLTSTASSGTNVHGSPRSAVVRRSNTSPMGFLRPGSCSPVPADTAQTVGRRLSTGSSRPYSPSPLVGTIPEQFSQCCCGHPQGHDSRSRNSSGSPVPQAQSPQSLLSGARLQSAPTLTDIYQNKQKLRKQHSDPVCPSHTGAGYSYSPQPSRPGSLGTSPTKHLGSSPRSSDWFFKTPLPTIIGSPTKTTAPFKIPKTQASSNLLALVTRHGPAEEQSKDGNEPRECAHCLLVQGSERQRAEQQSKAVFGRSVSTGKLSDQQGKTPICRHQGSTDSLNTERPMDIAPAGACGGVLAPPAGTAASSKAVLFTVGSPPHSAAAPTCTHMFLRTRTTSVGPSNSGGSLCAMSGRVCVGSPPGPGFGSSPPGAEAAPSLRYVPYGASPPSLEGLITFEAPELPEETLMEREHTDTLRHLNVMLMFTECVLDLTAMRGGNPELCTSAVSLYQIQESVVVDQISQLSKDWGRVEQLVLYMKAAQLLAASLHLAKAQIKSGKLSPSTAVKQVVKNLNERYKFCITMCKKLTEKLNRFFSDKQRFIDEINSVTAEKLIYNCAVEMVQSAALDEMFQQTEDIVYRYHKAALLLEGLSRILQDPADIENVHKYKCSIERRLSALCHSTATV
Sequence of UniProt P54760 (whole entry, looked up): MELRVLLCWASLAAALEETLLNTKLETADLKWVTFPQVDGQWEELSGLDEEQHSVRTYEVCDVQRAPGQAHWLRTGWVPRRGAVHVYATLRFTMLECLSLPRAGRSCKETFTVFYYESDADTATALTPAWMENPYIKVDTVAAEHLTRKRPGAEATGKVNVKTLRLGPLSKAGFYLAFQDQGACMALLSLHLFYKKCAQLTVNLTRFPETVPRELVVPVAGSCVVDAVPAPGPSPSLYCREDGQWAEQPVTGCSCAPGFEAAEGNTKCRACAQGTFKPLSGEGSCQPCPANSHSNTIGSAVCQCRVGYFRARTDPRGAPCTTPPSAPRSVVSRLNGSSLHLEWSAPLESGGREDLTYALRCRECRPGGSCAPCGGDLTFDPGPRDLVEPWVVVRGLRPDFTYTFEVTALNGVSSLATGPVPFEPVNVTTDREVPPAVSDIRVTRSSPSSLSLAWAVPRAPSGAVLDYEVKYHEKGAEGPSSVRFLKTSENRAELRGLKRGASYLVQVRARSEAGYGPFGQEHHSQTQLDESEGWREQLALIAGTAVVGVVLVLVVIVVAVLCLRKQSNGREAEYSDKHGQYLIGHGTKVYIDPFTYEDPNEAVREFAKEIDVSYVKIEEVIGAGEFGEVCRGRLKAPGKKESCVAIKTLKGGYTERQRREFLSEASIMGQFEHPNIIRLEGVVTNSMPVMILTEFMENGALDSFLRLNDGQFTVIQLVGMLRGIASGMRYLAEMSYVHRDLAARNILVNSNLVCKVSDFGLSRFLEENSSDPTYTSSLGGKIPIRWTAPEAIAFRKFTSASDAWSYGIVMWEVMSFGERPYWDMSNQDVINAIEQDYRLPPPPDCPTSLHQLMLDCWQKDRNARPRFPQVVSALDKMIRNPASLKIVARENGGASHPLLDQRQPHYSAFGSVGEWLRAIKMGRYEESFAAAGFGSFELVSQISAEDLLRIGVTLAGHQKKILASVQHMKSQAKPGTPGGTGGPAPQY

Block 1 — cell line: mouse MPNST tumor cells; technique: high-content immunofluorescence imaging; item: nuclear SOX9; tested at: 10 µM; time: 12 h; notes: mean of 2 replicates; relative to: DMSO control; reading: higher = more nuclear SOX9; endpoint: nuclear SOX9 intensity
CCS(=O)(=O)N(Cc1cccnc1)c1cccc(-c2ccc(C#N)cc2)c1: 113 % of DMSO
CCOC(=O)c1ccc(CN(Cc2ccc(-c3cccc(S(C)(=O)=O)c3)cc2)S(=O)(=O)c2c(C)cc(C)cc2C)o1: 120 % of DMSO
O=C(c1ccc(Cl)cc1)N(Cc1ccccc1)C1CCCCC1: 107 % of DMSO
O=C1NCCc2[nH]c(-c3ccncc3)cc21: 63.2 % of DMSO
CC(CCc1ccccc1)NCC(O)c1ccc(O)c(C(N)=O)c1 (centres unmarked): 113 % of DMSO
NC(=O)c1cc[n+](CC2=C(C(=O)[O-])N3C(=O)[C@@H](NC(=O)[C@@H](c4ccccc4)S(=O)(=O)O)[C@H]3SC2)cc1: 101 % of DMSO
CN(C)CCCC1(c2ccc(F)cc2)OCc2cc(C#N)ccc21 (centres unmarked): 114 % of DMSO and 122 % of DMSO

Block 2 — SMILES: O=C(Nc1ccccc1)Nc1cccc(Oc2ccc3nccn3n2)c1; tested at: 1 µM; endpoint: remaining binding
PRKCE (Homo sapiens, UniProt Q02156); competitive binding panel; relative to: vehicle: 100%
MAP3K11 (Homo sapiens, UniProt Q16584); competitive binding panel, item: MLK3; relative to: vehicle: 100%
ABL1 (Homo sapiens, UniProt P00519, T315I); competitive binding, scanMAX: 100%
EPHB4 (Homo sapiens, UniProt P54760); competitive binding panel; relative to: vehicle: 90%
ZAP70 (Homo sapiens, UniProt P43403); competitive binding panel; relative to: vehicle: 100%
MAP2K4 (Homo sapiens, UniProt P45985); competitive binding panel, item: MEK4; relative to: vehicle: 100%
ULK2 (Homo sapiens, UniProt Q8IYT8); competitive binding panel; relative to: vehicle: 100%
STK32C (Homo sapiens, UniProt Q86UX6); competitive binding panel, item: YANK3; relative to: vehicle: 100%
PTK6 (Homo sapiens, UniProt Q13882); competitive binding; BRK: 100%

Block 3 — read-out: enzyme activity; mode: inhibitor; tested at: 0.5 µM; relative to: control; endpoint: remaining activity
Target: Receptor tyrosine-protein kinase erbB-2 (ERBB2, Homo sapiens, UniProt P04626)
Cn1c2ccccc2c2c3c(c4c5ccccc5n(CCC#N)c4c21)CNC3=O: 107%
CO[C@H]1C[C@@H]2CC[C@@H](C)[C@@](O)(O2)C(=O)C(=O)N2CCCC[C@H]2C(=O)O[C@H]([C@H](C)C[C@@H]2CC[C@@H](O)[C@H](OC)C2)CC(=O)[C@H](C)/C=C(\C)[C@@H](O)[C@@H](OC)C(=O)[C@H](C)C[C@H](C)/C=C/C=C/C=C/1C: 97.3%
O=C(CCCc1ccc(-c2ccccc2F)cc1)Nc1ccc(O)cc1: 101%
O=C(Nc1cccc(Nc2cc(Nc3cccc(C(F)(F)F)c3)ncn2)c1)C1CC1: 82.5%
Cc1cccc(-c2[nH]c(C(C)(C)C)nc2-c2ccc3c(c2)OCO3)n1: 102%
COc1cc2ncnc(Nc3ccc(F)c(Cl)c3)c2cc1OCCCN1CCOCC1: 34.2%
CN(C)c1ccc(C=C2C(=O)Nc3ccccc32)cc1: 91%
O=C1NC(=O)C(c2cn(CCCO)c3ncccc23)=C1c1cnccn1: 106%
COc1ccc(CNC(=O)Nc2ncc([N+](=O)[O-])s2)cc1: 96.9%
CC(C)[C@H](CO)Nc1nc(Nc2cc(N)cc(Cl)c2)c2ncn(C(C)C)c2n1: 92.9%
Nc1ncnc2n[nH]c(Nc3ccc(F)cc3)c12: 101%
COc1cc2ncnc(Nc3ccc(Oc4ccccc4)cc3)c2cc1OC: 29.5%
NCCNc1ncc(C(N)=O)c(Nc2cccc(C(F)(F)F)c2)n1: 91.1%
COc1cc2nccc(Oc3ccc(NC(=S)NC(=O)c4ccccc4C)cc3)c2cc1OC: 102%
O=S(=O)(c1cccc2cnccc12)N1CCCNCC1: 108%

Single results of other studies
C[C@H](NC(=O)c1cnc2n1[C@](C)(Cc1ccc(C#N)cc1)C(=O)N2c1cc(Cl)c(F)c(Cl)c1)C(=O)NC1(c2ccccn2)CC1  inhibition (HTR3A (Homo sapiens, UniProt P46098); binding, radioligand binding; 10 µM): -2.51%
C[C@H](NC(=O)Nc1cc2[nH]ncc2c(CO)n1)c1ccccn1  IC50 (MAPK1 (Homo sapiens, UniProt P28482); target engagement in cells, BRET): > 10 µM
Cn1nc(C(F)(F)F)cc1-c1cnc(N2CCc3cc(S(=O)(=O)Nc4c(F)cc(Cl)cc4F)cc(N4CCCC4=O)c32)nc1  Ki (TMEM97 (Homo sapiens, UniProt Q5BJF2); binding, radioligand binding): > 10 µM
CN(C)C(=O)N1CC[C@H](N=C2Nc3cc(F)ccc3N(CC(F)F)c3ccc(Cl)cc32)C1  viability (sample B colorectal tumour organoid; 0.1 µM; relative to: DMSO): 112%

A few entries again (block 3):
O=C(Nc1cccc(Nc2cc(Nc3cccc(C(F)(F)F)c3)ncn2)c1)C1CC1: 82.5%
Cc1cccc(-c2[nH]c(C(C)(C)C)nc2-c2ccc3c(c2)OCO3)n1: 102%
COc1cc2ncnc(Nc3ccc(F)c(Cl)c3)c2cc1OCCCN1CCOCC1: 34.2%
CN(C)c1ccc(C=C2C(=O)Nc3ccccc32)cc1: 91%
O=C1NC(=O)C(c2cn(CCCO)c3ncccc23)=C1c1cnccn1: 106%
